Measured values of several laboratories.
Each line is one published result; not all experiments were run side by side. ± gives the spread as reported.

Cn1c(=O)oc2ccc(-c3ccc(CC(C#N)NC(=O)C4CNCCCO4)c(F)c3)cc21 (centres unmarked) — subjects with ALT increase (human; dose not given, single ascending doses, all subjects): 6.7%
CC(C)(O)c1ncc([S@](N)(=O)=NC(=O)Nc2c3c(cc4c2CCC4)CCC3)s1 — Cmax (healthy human; oral, 100 mg once daily, day 14, spray-dried dispersion, geometric mean): 12700 ng/mL
Oc1ccc2ccccc2c1/N=N/c1ccccc1 — measured concentration (extracted rat blood QC samples; 0.5 µg/L, 2 h, room temperature, short-term stability): 0.491 µg/L
OCc1cn(Cc2ccc(-c3noc(-c4ccc(OCC[18F])c(C(F)(F)F)c4)n3)cc2)nn1 — brain uptake (Lewis rat female, brain stem; intravenous, 5 min): 0.5 %ID/g
CC[C@@H](C)[C@H]1NC(=O)[C@@H]([C@H](C)O)NC(=O)[C@@H](Cc2c[nH]cn2)NC(=O)CNC(=O)[C@@H](CCCNC(=N)N)NC(=O)CNC(=O)[C@@H](Cc2ccccc2)NC1=O — concentration (New Zealand white rabbit, female, vitreous; ocular, 50 µL eye drop, 24 h): ~13.9 nM
C[C@@H]1O[C@@H](O[C@@H]2[C@@H](O)[C@H](O)[C@@H](CO)O[C@H]2c2c(O)cc(O)c3c(=O)cc(-c4ccc(O)cc4)oc23)[C@H](O)[C@H](O)[C@H]1O — Papp (in situ intestinal perfusion; Sprague-Dawley rat, small intestine; dose not given, 3 h): 0.031 to 0.093 ×10⁻⁶ cm/s
CCCCCCCC(=O)NCC(=O)N[C@@H](C)C(=O)N[C@H](C(=O)N[C@@H](C)C(=O)N[C@H](C(=O)N[C@@H](CCCCN)C(=O)N[C@@H](CCC(N)=O)C(=O)N[C@H](C(=O)N[C@@H](CCCCN)C(=O)N[C@@H](CCCCN)C(=O)N[C@@H](CC(C)C)C(=O)N[C@@H](Cc1ccccc1)C(=O)N[C@@H](CCCCN)C(=O)N[C@@H](CCCCN)C(=O)N[C@@H](CCCCN)C(=O)NCC(=O)NCC(N)=O)C(C)C)[C@@H](C)CC)[C@@H](C)O — acetonitrile at elution (reversed-phase HPLC; C18 column; hydrophobicity): 55%
NC[C@@H](C(=O)Nc1ccc(-c2cn[nH]c2)cc1)c1ccccc1 — chemosis score (OECD 405 eye irritation; New Zealand White rabbit, eye; topical, 0.1%, 56 h (day 3), scale 0 to 4; direction not given): 0
Cc1cc2c(cc1C1(c3ncc(C(=O)O)cn3)CC1)C(C)(C)CCC2(C)C — blood triglycerides (Sprague-Dawley rat, male; oral, 100 mg/kg, 24 h, sesame oil vehicle): 158 ± 46.5 mg/dL
CCCC[C@H](NC(=O)CNC(=O)CNC(=O)CN1CCN(CC(=O)O)CCN(CC(=O)O)CCN(CC(=O)O)CC1)C(=O)N[C@H]1CC(=O)NCCCC[C@@H](C(N)=O)NC(=O)[C@H](Cc2c[nH]c3ccccc23)NC(=O)[C@H](CCCNC(=N)N)NC(=O)[C@@H](Cc2ccccc2)NC(=O)[C@H](Cc2c[nH]cn2)NC1=O [gallium-67 labelled] — tissue uptake (female C57 mice, B16/F1 melanoma, liver; intravenous, 0.037 MBq, 2 h): 0.86 ± 0.19 %ID/g
COc1cc2c(cc1OC)CN(CCCCn1ccc3cc(OCC[18F])ccc31)C2 — uptake (ICR mice, male, small intestine; intravenous, 120 min): 20.5 ± 1.33 %ID/organ
N=C(N)NCCC[C@@H]1NC(=O)[C@H](Cc2c[nH]c3ccccc23)NC(=O)[C@@H](CC2CCCCC2)NC(=O)[C@@H]2CCCN2C(=O)[C@@H](NC(=O)CCc2ccccc2)CCCNC1=O — oral absorption (C57BL/6J mice, urine; baseline: oral over intravenous): ~20%
CC(C)N(P(c1ccccc1)c1ccccc1)P(c1ccccc1)c1ccccc1.Cc1ccc(C(C)C)cc1.F[B-](F)(F)F.[Cl][Ru+] — AUC(0-inf) (refers to: ruthenium; BALB/c nude mice, serum; ip, 5 mg/kg): 792 ng·h/mL
COCCOCCOCCOCCC(=O)NCc1cc(CNC(=O)CCOCCOCCOCCOC)cc(-c2cc3cc4nc(c(-c5ccc(CCC(=O)O)cc5)c5[nH]c(cc6nc(c(OC)c2[nH]3)CC6(C)C)cc5-c2cc(CNC(=O)CCOCCOCCOCCOC)cc(CNC(=O)CCOCCOCCOCCOC)c2)CC4(C)C)c1 — kic^−1 (DMF; room temperature): 9 ns
O=C(NCCCN(CCCCN(CCCNC(=O)c1cccc(=O)n1[O-])C(=O)c1cccc(=O)n1[O-])C(=O)c1cccc(=O)n1[O-])c1cccc(=O)n1[O-].[89Zr+4] — intact complex (radio-TLC; PBS; 5 d, pH 7.4, 37 °C, added: Cu^2+ 10-fold excess): 98.3 ± 2.4%
COC(=O)c1ccc2c(c1)NC(=O)/C2=C(\Nc1ccc2c(c1)CCN2C(=O)CN1CCOCC1)c1ccccc1 — clearance (beagle dog, plasma; intravenous, 2 mg/kg): 31.2 mL/min/kg
C#CCN(CCCNC(=O)CCCCC[N+]1=C(/C=C/C2=C(Cl)C(=C/C=C3\N(CCCCCC(=O)[O-])c4ccccc4C3(C)C)/CCC2)C(C)(C)c2ccccc21)CCCOc1ccc(Cl)cc1Cl — concentration (mouse plasma; 0.01 µg/mL nominal, 3 freeze-thaw cycles at -80 °C): 9.5 ± 0.9 ng/mL
CCNC(=O)OCc1c(COC(=O)NCC)c(-c2ccc(OC)cc2)n2c1Cc1ccccc1-2 — red cell distribution width (BALB/c nude mice, blood; dose not given, day 10): 18.5 ± 0.8%
CC(=O)N[C@H](CC(=O)O)C(=O)N[C@H](Cc1c[nH]c2ccccc12)C(=O)N[C@H](Cc1ccccc1)C(=O)N[C@H](CCCCN)C(=O)N[C@H](C)C(=O)N[C@H](Cc1ccccc1)C(=O)N[C@H](Cc1ccc(O)cc1)C(=O)N[C@H](CC(=O)O)C(=O)N[C@H](CCCCN)C(=O)N[C@@H](C(=O)N[C@H](C)C(=O)N[C@H](CCC(=O)O)C(=O)N[C@H](CCCCN)C(=O)N[C@H](Cc1ccccc1)C(=O)N[C@H](CCCCN)C(=O)N[C@H](CCC(=O)O)C(=O)N[C@H](C)C(=O)N[C@H](Cc1ccccc1)C(N)=O)C(C)C — AUC(0-t) (statin-treated high-risk CHD men, plasma; oral, 500 mg daily, day 1, 0 to 2 h, mean, all subjects): 32.9 ng·h/mL
COc1cc(NC(C)=O)c2c(c1O)-c1c(OC)c(OC)cc3c1C(C2)N(C)CC3 (centres unmarked) — remaining compound (rat liver homogenate; 50 µg/mL, time not given, three freeze-thaw cycles): 99.6 ± 0.2%
CCCC[C@H](NC(=O)CNC(=O)CNC(=O)CN1CCN(CC(=O)O)CCN(CC(=O)O)CCN(CC(=O)O)CC1)C(=O)N[C@H]1CC(=O)NCCCC[C@@H](C(N)=O)NC(=O)[C@H](Cc2c[nH]c3ccccc23)NC(=O)[C@H](CCCNC(=N)N)NC(=O)[C@@H](Cc2ccccc2)NC(=O)[C@H](Cc2c[nH]cn2)NC1=O [indium-111 labelled] — serum stability (RP-HPLC; mouse serum; 24 h, 37 °C): stable
C=CC(=O)Nc1cc(Nc2nccc(-c3cn(C4CC4)c4ccccc34)n2)c(OC)cc1NC — excreted amount (radio-HPLC; human male, feces; oral, 110 mg, 0 to 48 h, sample holds 45.32% dose; baseline: dose): 0.34%
CCCC[C@H](NC(C)=O)C(=O)N[C@H]1CC(=O)NCCCC[C@@H](C(=O)N[C@@H](C(=O)N2CCC[C@@H]2C(N)=O)C(C)C)NC(=O)[C@H](Cc2c[nH]c3ccccc23)NC(=O)[C@H](CCCN=C(N)N)NC(=O)[C@@H](Cc2ccc3ccccc3c2)NC(=O)[C@@H]2CCCN2C1=O — AUC (Beagle dog, both sexes, plasma; subcutaneous, once daily, 0.75 mg/kg, day 1): 11700 ± 1300 ng·h/mL
COc1ccc(C=NCCCN(C)CCN(C)CCCN=Cc2ccc(OC)cc2[O-])c([O-])c1.[67Ga+3] — tissue uptake ratio (rat; intravenous, 2 h; baseline: heart over liver): 7.2 ± 0.8
NC12CNCCNCC(NCc3ccc(CNC(=O)CCCC(=O)NCc4ccc(-c5nncnn5)cc4)cc3)(CNCCNC1)CNCCNC2.[64Cu+2] — mean absorbed dose (OLINDA dosimetry; testes; 48 h pretargeting interval, added: huA33-TCO pretargeting): 0.0322 rad/mCi
O=C([O-])CN1CCN(CC(=O)[O-])CCN(CC(=O)NCC2CCC(C(=O)NC(Cc3ccc4ccccc4c3)C(=O)NCCCCC(NC(=O)NC(CCC(=O)O)C(=O)O)C(=O)O)CC2)CCN(CC(=O)[O-])CC1.[44Sc+3] (centres unmarked) — intact complex (transchelation stability; 4 h, 37 °C, added: DTPA 10 mM): 96.7 ± 0.5%
OC1(C(F)(F)F)CCN(c2nc(Nc3ccnc(C(F)(F)F)c3)nc(-c3cccc(C(F)(F)F)n3)n2)C1 (centres unmarked) — micronucleus frequency (rat, bone marrow; baseline: vehicle): no effect
Cc1ccc(OCC(=O)N(Cc2cccs2)c2ccn[nH]2)cc1 — dose-normalised AUC(0-last) (beagle dog, male, plasma; oral gavage, 30 mg/kg): 7.42 ng·h/mL/mg/kg
C[Si]1(C[C@H](CN)CC(=O)O)CCCC1 — brain Cmax (Sprague-Dawley rat, male, brain; oral, 30 mg/kg, estimated as Cmax x Kp): 4800 nM

Some of these lines once more:
Oc1ccc2ccccc2c1/N=N/c1ccccc1 — measured concentration (extracted rat blood QC samples; 0.5 µg/L, 2 h, room temperature, short-term stability): 0.491 µg/L
